# Experimental data gathered from unrelated publications.
# Lines come from different studies, so protocols differ. ± marks the error that the study gave.
# Cell line: PC-3
Structure (SMILES),assay,setting,IC50
FC(F)(F)c1c(-c2ccc(Br)cc2)noc1-c1cccs1,"cell growth or viability, MTT",48 h,30.9 µM
CCN(CC)CCN1C(=O)c2ccc3c4cccc5c(N6CCNCC6)ccc(c6ccc(c2c36)C1=O)c54,"cell growth or viability, SRB",72 h,4 µM
COC(=O)CNC(=O)COc1ccc2c(C)cc(=O)oc2c1,"cell growth or viability, MTT",,106 µM
C[C@]1([N+](=O)[O-])C(=O)c2ccccc2O[C@@H]1CC(=O)Oc1ccccc1,"cell growth or viability, SRB",96 h,> 50 µM
CN(C)CCO/N=C1/C=C2CCC3C(CC[C@]4(C)/C(=C/c5ccccn5)CCC34)[C@@]2(C)CC1 (some centres unmarked),"cell growth or viability, MTT",72 h,69.5 µM
CCCC(CCC)C(=O)[O][Pt]1([O]C(=O)C(CCC)CCC)[O]C(=O)C(=O)[O]1.NC1CCCCC1N,cell growth or viability,,10.1 µM
C=CC(OC(C)=O)c1ccc(OC(C)=O)c(OC)c1 (centres unmarked),"cell growth or viability, MTT",24 h,13.8 µM
C=CCc1ccc(OCc2nnc(SCC(=O)Nc3cccc(Cl)c3)o2)c(OC)c1,"cell growth or viability, MTT",72 h,17 µM
CC(=O)O[C@@H]1CC[C@@]2(C)[C@@H](CC[C@]3(C)[C@@H]2C(=O)C=C2[C@@H]4[C@@H](C)[C@H](C)CC[C@]4(C)CC[C@]23C)[C@@]1(C)C(=O)NCCNC(=O)CCCCCCCCCC[P+](c1ccccc1)(c1ccccc1)c1ccccc1,"cell growth or viability, MTT",48 h,2.45 µM
O=C1c2ccc3c4cccc5cccc(c6ccc(c2c36)C(=O)N1CCN1CCCCC1)c54,"cell growth or viability, SRB",72 h,40.1 µM
CC(=O)O[C@@H]1CC[C@@]2(C)[C@@H](CC[C@]3(C)[C@@H]2C(=O)C=C2[C@@H]4[C@@H](C)[C@H](C)CC[C@]4(C)CC[C@]23C)[C@@]1(C)C(=O)O,"cell growth or viability, MTT",48 h,27.9 µM
Cc1ccc(-c2noc(-c3cccs3)c2C(F)(F)F)cc1,"cell growth or viability, MTT",48 h,28.7 µM
CC(=O)[O][Pt]1([O]C(C)=O)[O]C(=O)C(=O)[O]1.NC1CCCCC1N,cell growth or viability,,15.8 µM
CN1CCCC1CCO/N=C1/C=C2CCC3C(CC[C@]4(C)/C(=C/c5ccccn5)CCC34)[C@@]2(C)CC1 (some centres unmarked),"cell growth or viability, MTT",72 h,> 100 µM
Cc1ccc2c(c1)C(=O)[C@](C)([N+](=O)[O-])[C@@H](CC(=O)NC13CC4CC(CC(C4)C1)C3)O2,"cell growth or viability, SRB",96 h,6.39 µM
CCN1CCC2(CC1)C/C(=N\NC(=O)Nc1ccc(Cl)cc1)c1ccccc1O2,"cell growth or viability, MTT",48 h,27.2 µM
CC1=CC[C@]2(C(=O)O[C@H]3OC[C@@H](O)[C@@H](O)[C@@H]3OS(=O)(=O)O)CC[C@]3(C)C(CCC4[C@@]5(C)CC[C@H](O)C(C)(C)C5CC[C@]43C)C2[C@H]1C (some centres unmarked),"cell growth or viability, MTT",,5.52 µM
C=CC(OC(C)=O)c1cc(OC)c(OC(C)=O)c(OC)c1 (centres unmarked),MTT,24 h,> 50 µM
COc1cc(C2Oc3ccc(C=C4Oc5cc(O)ccc5C4=O)cc3OC2CO)cc(OC)c1O (centres unmarked),"cell growth or viability, MTT",72 h,76.4 µM
CCc1c(C)c2ccc(OC(C)C)c(C)c2oc1=O,"cell growth or viability, MTT",,> 50 µM
O=C(Cc1ccccc1)NC(=S)n1c(-c2ccccc2)nc2ccccc21,"cell growth or viability, MTT",48 h,25.4 µM
O=C(O)c1ccc([P+]([Au-][Cl])(c2ccccc2)c2ccccc2)cc1,"cell viability, XTT",72 h,78 µM
CC(=O)O[C@@H]1CC[C@@]2(C)[C@@H](CC[C@]3(C)[C@@H]2C(=O)C=C2[C@@H]4[C@@H](C)[C@H](C)CC[C@]4(C)CC[C@]23C)[C@@]1(C)C(=O)NCCNC(=O)c1ccc(C)cc1,"cell growth or viability, MTT",48 h,9.73 µM
CC(C)=CCC1=C([O-])C(=O)c2ccccc2C1=O.CC(C)=CCC1=C([O-])C(=O)c2ccccc2C1=O.Cc1cc2cccnc2c2ncccc12.[Cu+2],"cell viability, MTT",24 h,6.2 ± 1.6 µM
C[C@]12CC/C(=N\OCCN3CCCCC3)C=C1CCC1C2CC[C@]2(C)/C(=C/c3ccccn3)CCC12 (some centres unmarked),"cell growth or viability, MTT",72 h,> 100 µM
CCCCCC(=O)NCCNC(=O)[C@]1(C)[C@@H]2CC[C@]3(C)[C@H](C(=O)C=C4[C@@H]5[C@@H](C)[C@H](C)CC[C@]5(C)CC[C@]43C)[C@@]2(C)CC[C@H]1OC(C)=O,"cell growth or viability, MTT",48 h,17.6 µM
CCCCn1cc(C(=O)O)c(=O)c2cc(F)c(Nc3ccc(OC)cc3)c(N)c21,"cell growth or viability, SRB",72 h,5.25 µg/mL
C[S+](C)([O-])[Pt-2]([Cl])([Cl])[N+](=Cc1ccc[nH]1)Cc1ccccc1,"cell growth or viability, MTT",24 h,29.5 µg/mL
O=C(/C=C/c1ccc2c(c1)C(=O)N(CCCc1ccccc1)CC2)NO,"cell growth, SRB",72 h,1.94 ± 0.24 µM
COc1ccc(CN2C(=O)C(=O)c3cc(NC(C)=O)ccc32)cc1,"cell growth or viability, MTT",48 h,0.38 µM
CCOC(=O)CS/C(Nc1ccccc1)=C(\C#N)C(=O)Nc1nnc(NC(=O)c2ccccc2)s1,"cell growth or viability, MTT",48 h,71.9 µM
C=CCc1ccc(OC(C)=O)c(OC)c1,MTT,24 h,> 50 µM
C=CCc1ccc(OCc2nnc(SCC(=O)Nc3ccccc3Cl)o2)c(OC)c1,"cell growth or viability, MTT",72 h,11.2 µM
CCCCCCCC(=O)NCCNC(=O)[C@@]1(C)[C@H](O)CC[C@@]2(C)[C@H]1CC[C@]1(C)[C@@H]2C(=O)C=C2[C@@H]3[C@@H](C)[C@H](C)CC[C@]3(C)CC[C@]21C,"cell growth or viability, MTT",48 h,13.8 µM
CCCC(CCC)C(=O)[O][Pt]1([OH])[O]C(=O)C(=O)[O]1.NC1CCCCC1N,cell growth or viability,,53.2 µM
CC(=O)O[C@@H]1CC[C@@]2(C)[C@@H](CC[C@]3(C)[C@@H]2C(=O)C=C2[C@@H]4[C@@H](C)[C@H](C)CC[C@]4(C)CC[C@]23C)[C@@]1(C)C(=O)NCCNC(=O)CCCC[P+](c1ccccc1)(c1ccccc1)c1ccccc1,"cell growth or viability, MTT",48 h,10.2 µM
CN1CCC2(CC1)C/C(=N\NC(=O)Nc1ccc([N+](=O)[O-])cc1)c1ccccc1O2,"cell growth or viability, MTT",48 h,19.2 µM
CCCC(CCC)C(=O)NCCNC(=O)[C@@]1(C)[C@H](O)CC[C@@]2(C)[C@H]1CC[C@]1(C)[C@@H]2C(=O)C=C2[C@@H]3[C@@H](C)[C@H](C)CC[C@]3(C)CC[C@]21C,"cell growth or viability, MTT",48 h,20.3 µM
COC(=O)C[C@H]1Oc2ccccc2C(=O)[C@]1(C)[N+](=O)[O-],"cell growth or viability, SRB",96 h,> 50 µM
Cc1nn(-c2ccc(S(=O)(=O)N[C@@H](CO)CC(C)C)cc2)c2nn3nnnc3nc12,"cell growth or viability, MTT",72 h,0.3 µM
C=C(CO)C(=O)O[C@H]1CC(=C)[C@@H]2C[C@H](O)[C@](O)(CCl)[C@@H]2[C@H]2OC(=O)C(=C)C12 (some centres unmarked),cell growth or viability,,5.3 µg/mL
Cc1ccc(C(C)C)cc1.N=C(N)Nc1nc2ccccc2s1.[Cl-].[Cl][Ru+],"cell growth or viability, MTT",24 h,125 µM
C[C@H]1[C@H](C)CC[C@]2(C)CC[C@]3(C)C(=CC(=O)[C@@H]4[C@@]5(C)CC[C@@H](O)[C@](C)(C(=O)NCCNC(=O)C6CCCCC6)[C@@H]5CC[C@]43C)[C@H]12,"cell growth or viability, MTT",48 h,25.8 µM
COc1ccc(NC(=O)N/N=C2\CC3(CCN(C)CC3)Oc3ccccc32)cc1,"cell growth or viability, MTT",48 h,3.3 µM

# For quick reference, copied from above:
Structure (SMILES),assay,setting,IC50
CCCC(CCC)C(=O)NCCNC(=O)[C@@]1(C)[C@H](O)CC[C@@]2(C)[C@H]1CC[C@]1(C)[C@@H]2C(=O)C=C2[C@@H]3[C@@H](C)[C@H](C)CC[C@]3(C)CC[C@]21C,"cell growth or viability, MTT",48 h,20.3 µM
CCCC(CCC)C(=O)[O][Pt]1([OH])[O]C(=O)C(=O)[O]1.NC1CCCCC1N,cell growth or viability,,53.2 µM
CCOC(=O)CS/C(Nc1ccccc1)=C(\C#N)C(=O)Nc1nnc(NC(=O)c2ccccc2)s1,"cell growth or viability, MTT",48 h,71.9 µM
C[S+](C)([O-])[Pt-2]([Cl])([Cl])[N+](=Cc1ccc[nH]1)Cc1ccccc1,"cell growth or viability, MTT",24 h,29.5 µg/mL
CCc1c(C)c2ccc(OC(C)C)c(C)c2oc1=O,"cell growth or viability, MTT",,> 50 µM
CCN(CC)CCN1C(=O)c2ccc3c4cccc5c(N6CCNCC6)ccc(c6ccc(c2c36)C1=O)c54,"cell growth or viability, SRB",72 h,4 µM
CC(=O)O[C@@H]1CC[C@@]2(C)[C@@H](CC[C@]3(C)[C@@H]2C(=O)C=C2[C@@H]4[C@@H](C)[C@H](C)CC[C@]4(C)CC[C@]23C)[C@@]1(C)C(=O)NCCNC(=O)c1ccc(C)cc1,"cell growth or viability, MTT",48 h,9.73 µM
